Assay results gathered from unrelated publications.
Every numbered part comes from another study and shows a few of its results, in no order. Positions count from the first letter of the parent shown.
Chain of UniProt Q13237 (whole entry, looked up): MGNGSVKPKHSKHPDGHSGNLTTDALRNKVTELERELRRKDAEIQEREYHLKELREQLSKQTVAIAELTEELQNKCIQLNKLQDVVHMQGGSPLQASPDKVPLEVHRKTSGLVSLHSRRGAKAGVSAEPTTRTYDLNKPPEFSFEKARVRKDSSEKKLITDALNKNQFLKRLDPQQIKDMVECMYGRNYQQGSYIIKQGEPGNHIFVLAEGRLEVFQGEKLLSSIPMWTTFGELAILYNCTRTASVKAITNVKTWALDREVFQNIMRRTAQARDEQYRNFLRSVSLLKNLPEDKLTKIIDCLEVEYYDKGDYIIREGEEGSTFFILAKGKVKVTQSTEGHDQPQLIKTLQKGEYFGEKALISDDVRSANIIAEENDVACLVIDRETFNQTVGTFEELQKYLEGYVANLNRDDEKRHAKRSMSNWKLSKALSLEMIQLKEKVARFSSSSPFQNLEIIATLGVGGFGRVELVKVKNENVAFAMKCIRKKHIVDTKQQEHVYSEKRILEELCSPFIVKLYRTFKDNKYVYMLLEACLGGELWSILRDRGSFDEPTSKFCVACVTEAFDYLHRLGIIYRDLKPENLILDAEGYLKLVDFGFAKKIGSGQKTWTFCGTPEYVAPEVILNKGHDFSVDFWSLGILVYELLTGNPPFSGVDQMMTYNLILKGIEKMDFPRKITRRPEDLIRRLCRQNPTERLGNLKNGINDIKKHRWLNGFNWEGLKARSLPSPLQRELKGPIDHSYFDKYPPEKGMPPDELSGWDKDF
Chain of UniProt P28222 (whole entry, looked up): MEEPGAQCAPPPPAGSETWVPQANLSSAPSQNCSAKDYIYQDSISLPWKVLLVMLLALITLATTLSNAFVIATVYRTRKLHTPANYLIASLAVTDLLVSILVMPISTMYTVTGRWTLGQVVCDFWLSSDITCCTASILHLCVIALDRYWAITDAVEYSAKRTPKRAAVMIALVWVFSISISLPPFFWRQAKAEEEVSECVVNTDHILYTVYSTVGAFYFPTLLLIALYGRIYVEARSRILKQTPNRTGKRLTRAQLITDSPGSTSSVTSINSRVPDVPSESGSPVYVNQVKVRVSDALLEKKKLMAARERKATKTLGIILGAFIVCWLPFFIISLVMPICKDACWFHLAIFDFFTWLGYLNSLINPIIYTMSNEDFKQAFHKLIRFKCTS
Chain of UniProt Q6P2M8 (whole entry, looked up): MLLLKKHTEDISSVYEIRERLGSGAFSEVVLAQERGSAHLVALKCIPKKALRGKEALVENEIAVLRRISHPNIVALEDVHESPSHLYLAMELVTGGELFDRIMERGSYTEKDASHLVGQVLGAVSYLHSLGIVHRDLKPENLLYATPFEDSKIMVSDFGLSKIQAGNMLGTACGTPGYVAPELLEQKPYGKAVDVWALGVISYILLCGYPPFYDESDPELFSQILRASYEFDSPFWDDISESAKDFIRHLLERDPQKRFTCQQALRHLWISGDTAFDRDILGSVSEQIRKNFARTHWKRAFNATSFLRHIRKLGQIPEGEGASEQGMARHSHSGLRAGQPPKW
Chain of UniProt P23975 (whole entry, looked up): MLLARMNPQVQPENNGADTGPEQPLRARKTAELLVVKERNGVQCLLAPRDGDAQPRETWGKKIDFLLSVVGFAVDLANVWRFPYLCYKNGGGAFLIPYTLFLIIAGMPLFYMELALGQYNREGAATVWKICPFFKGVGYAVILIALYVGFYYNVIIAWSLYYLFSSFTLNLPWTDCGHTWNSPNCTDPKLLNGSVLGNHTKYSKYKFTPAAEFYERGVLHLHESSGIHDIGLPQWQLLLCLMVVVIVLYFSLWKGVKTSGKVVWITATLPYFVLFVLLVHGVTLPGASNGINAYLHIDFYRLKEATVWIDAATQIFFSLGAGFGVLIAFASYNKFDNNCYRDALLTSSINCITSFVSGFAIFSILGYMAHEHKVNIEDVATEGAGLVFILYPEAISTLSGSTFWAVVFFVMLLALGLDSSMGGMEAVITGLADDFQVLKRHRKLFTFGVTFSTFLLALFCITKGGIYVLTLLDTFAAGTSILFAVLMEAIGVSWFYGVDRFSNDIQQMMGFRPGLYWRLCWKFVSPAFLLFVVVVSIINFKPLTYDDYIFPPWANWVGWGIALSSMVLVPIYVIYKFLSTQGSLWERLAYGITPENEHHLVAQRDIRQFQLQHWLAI
Chain of UniProt Q9Y5S2 (whole entry, looked up): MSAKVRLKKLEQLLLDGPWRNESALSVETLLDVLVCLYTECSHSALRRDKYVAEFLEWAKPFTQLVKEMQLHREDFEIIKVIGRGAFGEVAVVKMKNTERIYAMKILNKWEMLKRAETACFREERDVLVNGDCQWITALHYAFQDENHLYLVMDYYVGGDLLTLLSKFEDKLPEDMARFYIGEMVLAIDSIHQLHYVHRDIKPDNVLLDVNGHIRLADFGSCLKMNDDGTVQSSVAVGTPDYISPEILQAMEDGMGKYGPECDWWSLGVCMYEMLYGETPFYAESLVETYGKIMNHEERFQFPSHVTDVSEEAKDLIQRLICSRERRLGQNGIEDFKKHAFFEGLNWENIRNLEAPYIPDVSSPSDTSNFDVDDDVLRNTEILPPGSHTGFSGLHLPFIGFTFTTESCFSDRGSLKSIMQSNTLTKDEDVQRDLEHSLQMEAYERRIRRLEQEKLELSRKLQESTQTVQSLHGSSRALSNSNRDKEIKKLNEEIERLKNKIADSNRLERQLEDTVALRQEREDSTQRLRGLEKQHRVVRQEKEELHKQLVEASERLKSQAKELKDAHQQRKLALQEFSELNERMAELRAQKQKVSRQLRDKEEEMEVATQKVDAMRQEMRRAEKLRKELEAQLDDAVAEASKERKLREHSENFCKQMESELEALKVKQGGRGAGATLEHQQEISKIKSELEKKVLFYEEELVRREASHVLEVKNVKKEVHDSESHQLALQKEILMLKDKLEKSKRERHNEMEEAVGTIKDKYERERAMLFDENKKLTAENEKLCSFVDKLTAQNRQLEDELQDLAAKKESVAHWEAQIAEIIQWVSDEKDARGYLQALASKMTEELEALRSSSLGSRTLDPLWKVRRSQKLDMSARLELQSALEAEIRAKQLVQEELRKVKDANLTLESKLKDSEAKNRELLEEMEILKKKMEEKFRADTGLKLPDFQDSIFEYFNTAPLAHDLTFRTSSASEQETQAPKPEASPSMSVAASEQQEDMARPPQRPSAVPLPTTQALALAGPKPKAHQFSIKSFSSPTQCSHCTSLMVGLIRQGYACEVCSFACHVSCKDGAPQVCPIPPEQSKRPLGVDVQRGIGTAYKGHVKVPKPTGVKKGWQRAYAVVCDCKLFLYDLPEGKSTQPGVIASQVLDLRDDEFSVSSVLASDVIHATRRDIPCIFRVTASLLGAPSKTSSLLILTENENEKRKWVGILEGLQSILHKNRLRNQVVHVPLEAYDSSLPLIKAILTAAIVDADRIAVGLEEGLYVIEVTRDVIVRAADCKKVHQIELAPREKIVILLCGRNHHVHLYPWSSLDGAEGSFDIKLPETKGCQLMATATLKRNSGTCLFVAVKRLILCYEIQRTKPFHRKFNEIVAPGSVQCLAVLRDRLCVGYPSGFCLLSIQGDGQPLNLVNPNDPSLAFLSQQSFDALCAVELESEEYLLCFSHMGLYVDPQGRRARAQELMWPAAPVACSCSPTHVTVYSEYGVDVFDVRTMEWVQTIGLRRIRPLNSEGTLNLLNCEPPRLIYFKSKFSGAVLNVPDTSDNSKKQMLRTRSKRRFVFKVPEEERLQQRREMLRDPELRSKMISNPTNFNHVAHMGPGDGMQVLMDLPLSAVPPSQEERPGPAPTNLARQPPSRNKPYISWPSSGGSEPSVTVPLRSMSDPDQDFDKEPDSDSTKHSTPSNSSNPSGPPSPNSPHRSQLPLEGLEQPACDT

Set 1
Structure (SMILES): COc1ccc2c(c[n+](C)c3c4cc5c(cc4ccc23)OCO5)c1OC
Read-out: enzyme activity
Mode: inhibitor
Tested at: 0.5 µM
Reference: control
| target | remaining activity [%] |
| --- | --- |
| PNCK (Homo sapiens, UniProt Q6P2M8) | 103 |
| PRKG2 (Homo sapiens, UniProt Q13237) | 68.7 |
| CDC42BPB (Homo sapiens, UniProt Q9Y5S2) | 107 |

Set 2
SMILES: Cc1c(N2CCNCC2)nc2ccc(Br)cc2c1C(=O)NC[C@H](CCC(=O)O)c1ccccc1Cl
Read-out: ligand displacement
Tested at: 10 µM
| target | inhibition [%] |
| --- | --- |
| HTR1B (Homo sapiens, UniProt P28222) | 15.2 |
| SLC6A4 (Homo sapiens, UniProt P31645) | 5.34 |
| SLC6A2 (Homo sapiens, UniProt P23975) | 14.1 |

Set 3
Target: CCNE2, cyclin fold, Cln2 fusion (human)
Technique: yeast growth competition, sequencing
Medium: yeast
Notes: strong parent motif
Reference: not given
Direction: higher = stronger binding
Starting sequence: viral docking peptide; TSVRRALFTGGSD; partner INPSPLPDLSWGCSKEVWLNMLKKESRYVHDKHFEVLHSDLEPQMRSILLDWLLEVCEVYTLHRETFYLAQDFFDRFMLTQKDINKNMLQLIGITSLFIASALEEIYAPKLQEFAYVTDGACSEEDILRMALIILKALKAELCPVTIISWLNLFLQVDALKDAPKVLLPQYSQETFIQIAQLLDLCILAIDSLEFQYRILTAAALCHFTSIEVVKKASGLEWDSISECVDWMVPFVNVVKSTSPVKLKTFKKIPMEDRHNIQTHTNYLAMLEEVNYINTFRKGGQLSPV
| Change | normalised enrichment score |
| --- | --- |
| V3A | 2.27 |
| V3Q | 0.0713 |
| F8V | 0.0728 |
| F8Y | 0.468 |
| R4W | 0.952 |
| S12T | 3.91 |
| T9P | 2.65 |
| R4F | 1.35 |

Set 4
Target: vanadate, free oxyanion
Technique: microfluidic competitive inhibition
Medium: in vitro, cell-free expressed
Tested at: not given
Notes: derived from inhibition constants, unchanged parent 676 nM
Direction: lower = stronger binding
Starting sequence: PafA, mature enzyme, eGFP fusion (Elizabethkingia meningoseptica, UniProt Q9KJX5); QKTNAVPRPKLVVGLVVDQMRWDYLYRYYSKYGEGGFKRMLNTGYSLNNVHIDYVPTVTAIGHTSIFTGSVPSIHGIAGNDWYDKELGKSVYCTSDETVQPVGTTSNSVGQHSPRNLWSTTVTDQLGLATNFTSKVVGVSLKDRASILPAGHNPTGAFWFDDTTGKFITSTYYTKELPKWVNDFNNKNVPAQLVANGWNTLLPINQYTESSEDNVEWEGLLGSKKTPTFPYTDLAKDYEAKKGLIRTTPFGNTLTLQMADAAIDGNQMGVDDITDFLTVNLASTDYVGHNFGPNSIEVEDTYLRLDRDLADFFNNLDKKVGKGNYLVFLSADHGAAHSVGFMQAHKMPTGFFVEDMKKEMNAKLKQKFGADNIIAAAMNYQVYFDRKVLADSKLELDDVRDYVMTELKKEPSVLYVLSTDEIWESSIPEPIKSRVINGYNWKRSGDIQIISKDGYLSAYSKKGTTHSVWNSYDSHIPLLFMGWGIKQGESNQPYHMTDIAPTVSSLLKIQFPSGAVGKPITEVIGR
| Change | oxyanion analog dissociation constant |
| --- | --- |
| P7G | 577 nM |
| S330G | 869 nM |
| G350A | 780 nM |
| K518V | 652 nM |
| T521G | 626 nM |
| N280V | 43.8 µM |
| L15G | 6.29 µM |
| A191G | 594 nM |

Repeated from above (set 4):
| Change | oxyanion analog dissociation constant |
| --- | --- |
| T521G | 626 nM |
| S330G | 869 nM |
| K518V | 652 nM |
